Published values of several laboratories.
± marks the error that the study gave.
CHRM1: Muscarinic acetylcholine receptor M1 (CHRM1, Homo sapiens, UniProt P11229)
UniProt P11229, sequence (whole entry, looked up): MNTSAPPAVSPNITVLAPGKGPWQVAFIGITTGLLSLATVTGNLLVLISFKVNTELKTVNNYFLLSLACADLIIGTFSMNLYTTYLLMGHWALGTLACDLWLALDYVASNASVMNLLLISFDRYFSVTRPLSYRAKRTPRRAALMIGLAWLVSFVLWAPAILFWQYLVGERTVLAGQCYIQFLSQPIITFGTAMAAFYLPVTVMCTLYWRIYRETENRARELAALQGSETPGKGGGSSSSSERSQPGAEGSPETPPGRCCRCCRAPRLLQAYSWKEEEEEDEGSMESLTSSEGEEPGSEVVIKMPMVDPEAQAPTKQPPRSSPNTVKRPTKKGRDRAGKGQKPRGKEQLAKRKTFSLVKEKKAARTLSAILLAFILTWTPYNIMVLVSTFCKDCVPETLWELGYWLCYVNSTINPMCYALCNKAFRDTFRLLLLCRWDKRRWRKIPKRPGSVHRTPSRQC
T1: DNA hairpin, hairpin; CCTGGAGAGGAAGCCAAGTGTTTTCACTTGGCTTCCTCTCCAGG
UniProt P08173, sequence (whole entry, looked up): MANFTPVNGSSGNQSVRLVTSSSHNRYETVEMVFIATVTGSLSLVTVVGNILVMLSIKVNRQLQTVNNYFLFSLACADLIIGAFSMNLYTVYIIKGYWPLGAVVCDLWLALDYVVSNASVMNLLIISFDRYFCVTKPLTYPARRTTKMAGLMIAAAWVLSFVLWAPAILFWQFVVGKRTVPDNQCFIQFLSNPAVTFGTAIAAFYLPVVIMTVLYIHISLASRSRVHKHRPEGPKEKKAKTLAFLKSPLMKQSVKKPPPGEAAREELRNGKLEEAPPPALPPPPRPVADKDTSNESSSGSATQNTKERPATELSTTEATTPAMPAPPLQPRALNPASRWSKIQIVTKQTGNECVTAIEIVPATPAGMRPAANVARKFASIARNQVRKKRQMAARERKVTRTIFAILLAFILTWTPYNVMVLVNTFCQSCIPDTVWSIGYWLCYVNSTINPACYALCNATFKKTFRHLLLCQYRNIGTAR
UniProt P50391, sequence (whole entry, looked up): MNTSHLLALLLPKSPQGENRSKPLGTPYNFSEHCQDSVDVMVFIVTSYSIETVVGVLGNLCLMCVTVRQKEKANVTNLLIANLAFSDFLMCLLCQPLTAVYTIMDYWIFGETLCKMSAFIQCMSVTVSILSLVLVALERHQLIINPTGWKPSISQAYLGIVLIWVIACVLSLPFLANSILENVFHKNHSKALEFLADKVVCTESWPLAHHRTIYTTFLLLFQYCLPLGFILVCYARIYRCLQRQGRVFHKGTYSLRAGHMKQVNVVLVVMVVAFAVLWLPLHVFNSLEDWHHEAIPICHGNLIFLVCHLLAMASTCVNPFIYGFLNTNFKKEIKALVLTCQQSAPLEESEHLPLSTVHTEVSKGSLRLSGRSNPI
UniProt P54750, sequence (whole entry, looked up): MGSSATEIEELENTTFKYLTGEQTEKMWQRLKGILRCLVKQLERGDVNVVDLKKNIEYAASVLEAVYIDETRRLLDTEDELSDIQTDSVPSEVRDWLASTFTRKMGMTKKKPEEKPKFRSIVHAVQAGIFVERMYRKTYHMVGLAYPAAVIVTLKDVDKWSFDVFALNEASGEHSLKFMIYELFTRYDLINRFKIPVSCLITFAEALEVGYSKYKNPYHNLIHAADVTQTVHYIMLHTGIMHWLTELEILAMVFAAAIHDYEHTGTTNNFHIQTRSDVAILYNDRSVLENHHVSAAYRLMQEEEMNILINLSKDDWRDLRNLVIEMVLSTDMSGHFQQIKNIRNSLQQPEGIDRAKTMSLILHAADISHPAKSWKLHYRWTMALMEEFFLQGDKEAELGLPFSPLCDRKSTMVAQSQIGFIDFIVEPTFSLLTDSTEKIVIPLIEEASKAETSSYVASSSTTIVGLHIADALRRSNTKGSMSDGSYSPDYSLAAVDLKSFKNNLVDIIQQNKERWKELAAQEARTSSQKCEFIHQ
UniProt P14483, sequence (whole entry, looked up): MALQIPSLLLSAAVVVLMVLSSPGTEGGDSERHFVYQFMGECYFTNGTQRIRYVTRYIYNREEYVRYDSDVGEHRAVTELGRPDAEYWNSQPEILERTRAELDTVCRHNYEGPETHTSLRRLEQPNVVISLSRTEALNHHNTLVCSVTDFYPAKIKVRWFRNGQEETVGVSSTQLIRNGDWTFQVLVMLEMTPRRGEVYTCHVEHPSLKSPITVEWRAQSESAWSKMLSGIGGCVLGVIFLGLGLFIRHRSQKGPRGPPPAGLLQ
UniProt P12369, sequence (whole entry, unmodified, looked up): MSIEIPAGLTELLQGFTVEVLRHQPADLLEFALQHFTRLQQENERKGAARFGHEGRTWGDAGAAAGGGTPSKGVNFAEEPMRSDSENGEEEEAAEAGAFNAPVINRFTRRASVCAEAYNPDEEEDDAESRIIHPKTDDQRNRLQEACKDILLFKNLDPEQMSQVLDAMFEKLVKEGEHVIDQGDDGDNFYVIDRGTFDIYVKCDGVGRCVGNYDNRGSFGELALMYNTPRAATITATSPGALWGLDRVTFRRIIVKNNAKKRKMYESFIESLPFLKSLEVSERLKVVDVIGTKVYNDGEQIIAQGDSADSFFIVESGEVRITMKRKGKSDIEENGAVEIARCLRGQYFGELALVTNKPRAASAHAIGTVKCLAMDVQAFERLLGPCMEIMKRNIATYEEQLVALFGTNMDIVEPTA
UniProt P06401, sequence (whole entry, looked up): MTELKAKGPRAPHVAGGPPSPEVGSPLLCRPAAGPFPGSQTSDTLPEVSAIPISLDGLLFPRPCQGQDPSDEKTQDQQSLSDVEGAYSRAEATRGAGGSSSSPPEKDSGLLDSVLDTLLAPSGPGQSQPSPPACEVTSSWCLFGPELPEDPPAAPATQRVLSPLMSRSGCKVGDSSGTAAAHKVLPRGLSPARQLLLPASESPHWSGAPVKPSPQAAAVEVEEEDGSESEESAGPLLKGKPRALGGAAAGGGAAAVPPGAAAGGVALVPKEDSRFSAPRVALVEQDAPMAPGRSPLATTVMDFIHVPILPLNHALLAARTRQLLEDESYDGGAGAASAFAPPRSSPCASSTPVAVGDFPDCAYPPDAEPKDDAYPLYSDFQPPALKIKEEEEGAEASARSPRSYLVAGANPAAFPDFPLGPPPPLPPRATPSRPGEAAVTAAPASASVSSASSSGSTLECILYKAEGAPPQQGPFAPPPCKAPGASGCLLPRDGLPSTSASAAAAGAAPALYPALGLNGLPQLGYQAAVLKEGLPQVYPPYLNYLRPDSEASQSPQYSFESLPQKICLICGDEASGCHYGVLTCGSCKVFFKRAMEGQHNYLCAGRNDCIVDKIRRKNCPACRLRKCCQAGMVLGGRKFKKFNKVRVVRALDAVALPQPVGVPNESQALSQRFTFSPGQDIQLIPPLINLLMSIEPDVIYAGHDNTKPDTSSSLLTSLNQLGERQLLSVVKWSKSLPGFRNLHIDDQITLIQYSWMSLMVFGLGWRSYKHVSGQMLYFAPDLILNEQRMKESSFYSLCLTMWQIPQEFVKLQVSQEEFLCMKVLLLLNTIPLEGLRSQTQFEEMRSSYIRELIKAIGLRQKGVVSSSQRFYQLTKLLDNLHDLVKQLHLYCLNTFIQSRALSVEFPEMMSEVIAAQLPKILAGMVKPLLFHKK
UniProt P11588, sequence (whole entry, looked up): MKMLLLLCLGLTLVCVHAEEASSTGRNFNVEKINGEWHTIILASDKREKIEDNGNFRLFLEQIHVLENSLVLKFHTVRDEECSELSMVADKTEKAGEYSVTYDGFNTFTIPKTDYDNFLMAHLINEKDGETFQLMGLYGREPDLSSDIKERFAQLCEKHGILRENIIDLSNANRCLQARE
UniProt P14434, sequence (whole entry, looked up): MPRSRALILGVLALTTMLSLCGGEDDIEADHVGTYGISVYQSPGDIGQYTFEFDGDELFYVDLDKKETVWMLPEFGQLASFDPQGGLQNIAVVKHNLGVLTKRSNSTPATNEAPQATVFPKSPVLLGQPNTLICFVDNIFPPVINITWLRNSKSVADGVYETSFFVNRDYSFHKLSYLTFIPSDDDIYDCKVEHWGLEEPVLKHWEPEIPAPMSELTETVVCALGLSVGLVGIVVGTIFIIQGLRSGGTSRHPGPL
UniProt P11607, sequence (whole entry, looked up): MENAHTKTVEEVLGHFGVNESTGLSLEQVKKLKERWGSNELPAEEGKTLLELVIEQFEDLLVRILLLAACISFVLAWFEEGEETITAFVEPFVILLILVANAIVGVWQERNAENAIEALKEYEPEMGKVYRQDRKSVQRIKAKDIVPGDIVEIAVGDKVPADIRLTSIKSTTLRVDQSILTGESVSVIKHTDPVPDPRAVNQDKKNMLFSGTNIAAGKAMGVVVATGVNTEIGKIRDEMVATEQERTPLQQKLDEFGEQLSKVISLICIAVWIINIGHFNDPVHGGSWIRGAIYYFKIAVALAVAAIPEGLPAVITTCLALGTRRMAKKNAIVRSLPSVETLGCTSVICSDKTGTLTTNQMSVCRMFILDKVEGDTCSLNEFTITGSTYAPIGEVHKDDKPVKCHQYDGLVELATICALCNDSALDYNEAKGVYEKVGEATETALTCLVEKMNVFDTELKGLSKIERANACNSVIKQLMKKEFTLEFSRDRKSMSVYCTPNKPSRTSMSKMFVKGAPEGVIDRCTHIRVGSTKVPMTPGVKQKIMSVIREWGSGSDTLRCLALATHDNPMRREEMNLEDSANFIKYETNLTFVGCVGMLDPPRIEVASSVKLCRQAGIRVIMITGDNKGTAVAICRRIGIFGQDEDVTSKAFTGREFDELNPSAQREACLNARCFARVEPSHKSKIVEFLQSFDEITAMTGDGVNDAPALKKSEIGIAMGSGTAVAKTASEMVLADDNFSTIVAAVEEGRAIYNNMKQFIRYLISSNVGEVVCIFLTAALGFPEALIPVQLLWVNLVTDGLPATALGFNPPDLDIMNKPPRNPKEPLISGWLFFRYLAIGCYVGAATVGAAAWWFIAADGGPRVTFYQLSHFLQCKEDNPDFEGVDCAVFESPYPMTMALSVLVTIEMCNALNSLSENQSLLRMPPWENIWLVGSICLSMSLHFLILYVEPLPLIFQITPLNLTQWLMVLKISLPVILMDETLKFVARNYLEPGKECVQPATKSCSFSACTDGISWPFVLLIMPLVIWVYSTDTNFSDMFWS

Substance | target | assay | system | setting | scale | endpoint | result
Cn1c(=O)c2[nH]c(Cc3ccccc3)nc2n(C)c1=O | Progesterone receptor (PGR, Homo sapiens, UniProt P06401) | reporter gene, antagonist, MMTV-luciferase | T47D/A1-2 | 10 µM, 24 h, added: 5 nM progesterone | reference: maximal activity | remaining activity | 144%
O=P1(O)OC[C@H]2O[C@@H](n3cnc4c(Nc5ccccc5)ncnc43)[C@@H](O)C2O1 (stereo partly drawn) | cAMP-dependent protein kinase type II-beta regulatory subunit, holoenzyme with catalytic subunit (Prkar2b, Rattus norvegicus, UniProt P12369, S112A) | PKA holoenzyme activation, activator, fluorescence anisotropy |  |  | reference: RIIβ over RIα, higher = RIIβ-selective | selectivity ratio | 4.6
COC(=O)c1scc(C)c1NC(=O)C(C)N1CCNCC1 (stereo not drawn) | Sodium channel protein type 10 subunit alpha (SCN10A, Homo sapiens, UniProt Q9Y5Y9) | cell membrane chromatography |  |  | higher = stronger binding | capacity factor k′ | 32
CC[C@H](C)[C@H](NC(=O)[C@H](Cc1ccc(O)cc1)NC(=O)[C@H](CCCNC(=N)N)NC(=O)[C@H](CCCNC(=N)N)NC(=O)[C@H](CC(C)C)NC(=O)[C@H](CC(=O)O)NC(=O)[C@H](C)NC(=O)[C@H](C)NC(=O)[C@H](Cc1ccc(O)cc1)NC(=O)[C@H](CCC(N)=O)NC(=O)[C@H](C)NC(=O)[C@H](CCSC)NC(=O)[C@H](CCC(N)=O)NC(=O)[C@H](CCC(=O)O)NC(=O)[C@@H]1CCCN1C(=O)[C@@H](NC(=O)[C@H](C)NC(=O)[C@H](CC(N)=O)NC(=O)[C@H](CC(=O)O)NC(=O)CNC(=O)[C@@H]1CCCN1C(=O)[C@H](Cc1ccc(O)cc1)NC(=O)[C@@H](NC(=O)[C@@H]1CCCN1C(=O)[C@H](CCC(=O)O)NC(=O)[C@H](CC(C)C)NC(=O)[C@@H]1CCCN1C(=O)[C@H](C)NC(=O)c1ccc2c(c1)C(=O)OC21c2ccc(O)cc2Oc2cc(O)ccc21)C(C)C)[C@@H](C)O)C(=O)N[C@@H](CC(N)=O)C(=O)N[C@@H](CCSC)C(=O)N[C@@H](CC(C)C)C(=O)N[C@H](C(=O)N[C@@H](CCCNC(=N)N)C(=O)N1CCC[C@H]1C(=O)N[C@@H](CCCNC(=N)N)C(=O)N[C@@H](Cc1ccc(O)cc1)C(N)=O)[C@@H](C)O | Neuropeptide Y receptor type 4 (NPY4R, Homo sapiens, UniProt P50391) | radioligand displacement | COS-7 transiently expressing | 1 µM, 90 min, room temperature, added: [3H]-hPP 1 nM | reference: total binding | specific binding | 90%
NCCSC[C@@H](N)C(=O)O | Lysine 5,6-aminomutase (Porphyromonas gingivalis, UniProt Q7MVI7+Q7MVI8) | suicide inhibitor |  | 20 mM, pH 8.5, anaerobic, added: adenosylcobalamin and PLP |  | inactivation | 77%
COc1ccc(C)c2sc(NC(=O)c3c(F)cccc3F)nc12 | Muscarinic acetylcholine receptor M4 (CHRM4, Homo sapiens, UniProt P08173) | calcium mobilization, positive allosteric modulator | CHO expressing hM4 and Gqi5 | concentration not given, added: acetylcholine EC20 |  | activity | inactive
Cn1cc(-c2ccc(COc3ccccc3-c3cc(=O)n(C4CCCCC4O)cn3)cn2)cn1 (stereo not drawn) | CHRM1 | allosteric agonist, IP1 accumulation | CHO-M1 cells | 1 µM, unit not given | reference: maximum ACh response | change in baseline activity | 36 ± 3.3
CN(C)CCCNC(=O)CCNC(=O)c1cc(NC(=O)c2cc(NC(=O)c3nc(NC(=O)c4cc(NC(=O)CCCNC(=O)c5cc(NC(=O)c6cc(NC(=O)c7nc(NC(=O)c8nccn8C)cn7C)cn6C)cn5C)cn4C)cn3C)cn2C)cn1C | T1, DNA hairpin, hairpin | competitor, competition fluorescence titration |  | pH 7.4, 25 °C, NaCl 50 mM, added: TAMRA-HP1 |  | Kd | 1.1 nM
Clc1cccc(Nc2nnc(-c3ccccc3)c3ccccc23)c1 | Dual specificity calcium/calmodulin-dependent 3',5'-cyclic nucleotide phosphodiesterase 1A (PDE1A, Homo sapiens, UniProt P54750) | cAMP hydrolysis, inhibitor, fluorescence polarization | recombinant enzyme | up to 100 µM, 30 min preincubation, 30 °C, added: fluorescein-cAMP 25 nM |  | IC50 | inactive
CC(C)(C)OC(=O)Nc1ccc(COc2ccccc2-c2cc(=O)n(C3CCCCC3O)cn2)cc1 (stereo not drawn) | CHRM1 | positive allosteric modulator, IP1 accumulation | CHO-M1 cells | 10 µM, 60 min, 37 °C, added: ACh | reference: ACh alone, higher = stronger potentiation | ΔpEC50 of ACh | 1.57 ± 0.3 log units
CCCN(Cc1ccncc1F)C(=O)c1cc(C)c(C)s1 | ATP2A2 (Sus scrofa, UniProt P11607) | enzyme activity, NADH-coupled | porcine cardiac SR vesicles | up to 50 µM |  | Ca2+-ATPase activity | inactive
NC(=O)c1ccc(COc2ccccc2-c2cc(=O)n(C3CCCCC3O)cn2)cc1 (stereo not drawn) | CHRM1 | allosteric agonist, IP1 accumulation | CHO-M1 cells | 1 µM, unit not given | reference: maximum ACh response | change in baseline activity | 37.9 ± 3.3
CCCCCCCCO | Major urinary protein 1 (Mup1, Mus musculus, UniProt P11588) | isothermal titration calorimetry |  | concentration not given, pH 7.4, 278-308 K |  | binding heat capacity change | -646 ± 27 J/(K·mol)
CCN(CC)C(=O)c1ccc(COc2ccccc2-c2cc(=O)n(C3CCCCC3O)cn2)cc1 (stereo not drawn) | CHRM1 | allosteric agonist, IP1 accumulation | CHO-M1 cells | 10 µM, unit not given | reference: maximum ACh response | change in baseline activity | 27.9 ± 3.1
SLFFSAQPFEITAST | H2-Aa/H2-Ab1 (Mus musculus, UniProt P14434+P14483) | MHC class II binding, competitive radioligand binding | peptide | concentration not given |  | binding | binds

Excerpt of the above:
Substance | target | assay | system | setting | scale | endpoint | result
CCN(CC)C(=O)c1ccc(COc2ccccc2-c2cc(=O)n(C3CCCCC3O)cn2)cc1 (stereo not drawn) | CHRM1 | allosteric agonist, IP1 accumulation | CHO-M1 cells | 10 µM, unit not given | reference: maximum ACh response | change in baseline activity | 27.9 ± 3.1
SLFFSAQPFEITAST | H2-Aa/H2-Ab1 (Mus musculus, UniProt P14434+P14483) | MHC class II binding, competitive radioligand binding | peptide | concentration not given |  | binding | binds
